Measured values collected from several papers.
Compare with care: the assays were run in different laboratories. Values joined by “and” are separate records of one study, mostly repeats; a detail may differ. ± marks the error that the study gave.
B1: FABP4; sequence looked up; chain CDAFVGTWKLVSSENFDDYMKEVGVGFATRKVAGMAKPNMIISVNGDLVTIRSESTFKNTEISFKLGVEFDEITADDRKVKSIITLDGGALVQVQKWDGKSTTIKRKRDGDKLVVECVMKGVTSTRVYERA
B2: IκBα C308F; sequence looked up; chain MFQAAERPQEWAMEGPRDGLKKERLLDDRHDSGLDSMKDEEYEQMVKELQEIRLEPQEVPRGSEPWKQQLTEDGDSFLHLAIIHEEKALTMEVIRQVKGDLAFLNFQNNLQQTPLHLAVITNQPEIAEALLGAGCDPELRDFRGNTPLHLACEQGCLASVGVLTQSCTTPHLHSILKATNYNGHTCLHLASIHGYLGIVELLVSLGADVNAQEPCNGRTALHLAVDLQNPDLVSLLLKCGADVNRVTYQGYSPYQLTWGRPSTRIQQQLGQLTLENLQMLPESEDEESYDTESEFTEFTEDELPYDDFVFGGQRLTL

Molecule | target or system | assay | system | setting | scale | measurement | result
NPDALPETLV | human MAGI1-2/6 PDZ construct (MBP fusion) | automated holdup | peptide, crude extract | concentration not given, uncorrected, unit not given | reference: biotin control resin, higher = stronger binding | binding intensity | 0.293
chidamide | HEK-293T ATF4-FLuc reporter | reporter gene, activator, qHTS |  |  |  | EC50 | 2.02 µM
GSGAGPETLV | human MAGI1-2/6 PDZ construct (MBP fusion) | automated holdup | peptide, purified PDZ protein | concentration not given, unit not given | reference: biotin control resin, higher = stronger binding | binding intensity | 0.134
SLLQWTTQV | Jurkat T cells expressing 1G4 TCR | NFAT-eGFP reporter, fluorescence microscopy | peptide | concentration not given, HLA-A*02:01 NY-ESO system |  | reporter activation | 26.9%
maraviroc | HBMEC | gene expression, qPCR |  | concentration not given, 24 h, with: HIV infection | reference: HIV-infected cells, decrease | mRNA level | 15.3 fold
MTVCNASQRQAHAQATAVSL | A549 | phage binding | peptide |  | reference: targeting over control phage | selectivity ratio | 21 ± 2.7
ALLEWVTEV | Jurkat T cells expressing 1G4 TCR | NFAT-eGFP reporter, fluorescence microscopy | peptide | concentration not given, HLA-A*02:01 NY-ESO system |  | reporter activation | 0.00554%
ALLANHEELFQT | CCA-156 | multimer binding | peptide | 150 µM, 30 min, 4 °C, unlabelled competitor, with: 5 µM Cy5.5-labelled multimer |  | fluorescence signal | decreased
monensin sodium | MCF-10A | CellTiter-Glo |  | concentration not given, replicate A | reference: normalised luminescence | viability | 83.4%
RLGQWIAQA | Jurkat T cells expressing 1G4 TCR | NFAT-eGFP reporter, fluorescence microscopy | peptide | concentration not given, HLA-A*02:01 NY-ESO system |  | reporter activation | 0.0552%
bis(2,4-dimethylpyridine)dichloroplatinum(II) | BEAS-2B | cell viability, MTT |  | 48 h |  | IC50 | 9.3 µM
MAAAAAAAAAAAAAAA | HS-SY-II | degrader, immunoblot, refers to: SS18-SSX1 | peptide | concentration not given | reference: control | protein level fold change | 1
GLAQWISHV | Jurkat T cells expressing 1G4 TCR | NFAT-eGFP reporter, flow cytometry | peptide | concentration not given, HLA-A*02:01 NY-ESO system |  | reporter activation | 0.19%
Ac-LRKLRKRLLRDWLKAFYDKVAEKLKEAF-NH2 (N-acetyl, C-amide) | [3H]-cholesterol-loaded THP-1-derived macrophages |  | peptide | 50 µg/mL | reference: control | maximal cholesterol efflux stimulation | 40%
epoetin alfa | UT7/EPO | RT-qPCR, refers to: EGR4 |  | concentration not given, 90 min, normalized to HPRT1 | reference: vehicle | mRNA level | 7.8 fold
KQWLVWLFL | Jurkat TCR CD8+ with T2 cells | IL-2 release, agonist | peptide | 18 to 20 h, 37 °C | reference: peptide over wild-type peptide | EC50 fold difference | ≥ 200 fold
TLFEWVPQL | Jurkat T cells expressing 1G4 TCR | NFAT-eGFP reporter, fluorescence microscopy | peptide | concentration not given, HLA-A*02:01 NY-ESO system |  | reporter activation | 0.0101%
B1 (FABP4) | mouse bone marrow macrophages | TRAP staining |  | 25 ng/mL, 4 days, with: M-CSF and RANKL |  | osteoclast number | 192 and 202 and 172 and 205
YLGEWVAQL | Jurkat T cells expressing 1G4 TCR | NFAT-eGFP reporter, fluorescence microscopy | peptide | concentration not given, HLA-A*02:01 NY-ESO system |  | reporter activation | 0.00283%
AFRSPCARIGYV | HEK-293T cells | co-immunoprecipitation | peptide | concentration not given, unit not given | reference: Cdk5 level | Cdk5-p25 binding | 1.23 and 0.91 and 1.04 and 1.01 and 1.08 and 0.723
Peginesatide | UT7/EPO | RT-qPCR, refers to: CD69 |  | concentration not given, 90 min | reference: vehicle | mRNA fold induction | 9.4 fold
bovine insulin | ATDC5 |  |  | 10 µg/mL, days 6 to 10 |  | cell doubling time | ~48 h
alsterpaullone | HeLa expressing Ub(G76V)-GFP | Ub(G76V)-GFP degradation, inhibitor, cycloheximide chase |  | 12 µM |  | inhibition | 25%
SLLQWVSQV | Jurkat T cells expressing 1G4 TCR | NFAT-eGFP reporter, flow cytometry | peptide | concentration not given, HLA-A*02:01 NY-ESO system |  | reporter activation | 73.8%
B2 (IκBα C308F) | IκBα/IκBβ/IκBε knockout MEF, retro-transduced IκBα | Western blot |  | concentration not given, 0 (unit not given), with: TNFα 20 ng/mL | reference: time zero | IκBα protein level | 100%
lawsone | A549 | MTT |  |  | reference: MRC5 IC50 over A549 IC50 | selectivity index | 1.63
ALFQWISGA | Jurkat T cells expressing 1G4 TCR | NFAT-eGFP reporter, fluorescence microscopy | peptide | concentration not given, HLA-A*02:01 NY-ESO system |  | reporter activation | 0.0111%
KMTMR | THP-1 | Western blot | peptide | 1.0 µM, 3 days, unit not given, with: WNT3A | reference: WNT3A alone | active β-catenin level | 1.2

Repeated from above:
Molecule | target or system | assay | system | setting | scale | measurement | result
GLAQWISHV | Jurkat T cells expressing 1G4 TCR | NFAT-eGFP reporter, flow cytometry | peptide | concentration not given, HLA-A*02:01 NY-ESO system |  | reporter activation | 0.19%
TLFEWVPQL | Jurkat T cells expressing 1G4 TCR | NFAT-eGFP reporter, fluorescence microscopy | peptide | concentration not given, HLA-A*02:01 NY-ESO system |  | reporter activation | 0.0101%
bovine insulin | ATDC5 |  |  | 10 µg/mL, days 6 to 10 |  | cell doubling time | ~48 h
